Published values collected from several papers.
Several values in a cell are separate wells, animals, samples, runs or records.
Target: Dual specificity protein kinase CLK2 (CLK2, Homo sapiens, UniProt P49760)

SMILES | test | test system | conditions | scale | quantity | result
Nc1ncc2c(n1)-c1c([nH]c3ccc(C4=CCOCC4)cc13)CCC2 | binding, competition with immobilised ligand |  | 1 µM |  | remaining binding | 20%
COc1c(Cl)cccc1Nc1c(-c2ccncc2C#C[C@@]2(C)CCCN2C(=O)/C=C/CN(C)C)[nH]c2c1C(=O)NCC2 | binding, competition with immobilised ligand |  | 3 µM |  | remaining binding | 83%
C=CC(=O)Nc1cccc(-c2cnc3[nH]cc(C(=O)NC(C)(C)C)c3n2)c1 | kinase activity |  | 0.1 µM |  | inhibition | 73% and 75%
NC(=O)[C@@H](O)C[C@H]1CCc2sc3ncnc(O[C@H]4CC[C@H](N5CCOCC5)CC4)c3c21 | enzyme activity, inhibitor |  | 10 µM |  | inhibition | 99%
C=CC(=O)Nc1cc(-c2nn(C3CCN(CCNC(=O)[C@H](C)CCC45CC6CC(CC(C6)C4)C5)CC3)c3ncnc(N)c23)ccc1Oc1ccccc1 | inhibitor, KiNativ profiling | biochemical | 2 µM |  | inhibition | 21.6%
COc1cc(Nc2nc(C)cc(-c3cnn4nc(OC)ccc34)n2)cc(C(F)(F)F)c1 | binding, competition with immobilised ligand |  | 1 µM |  | remaining binding | 96%
CC(C)=CC1OC(C)(C)C2C=C3C(=O)C(Cl)=CC(O)C3C3C(O)C4OC4C(=O)C132 (stereo not shown) | cell-free assay, competition with immobilised ligand |  | 10 µM |  | remaining binding | 70%
CNC(=O)C[C@H](Cc1ccc(C#N)cc1)NC(=O)c1cc(-c2ccc(CN[C@H](C)c3ccc(C)cc3)o2)ccc1Cl | enzyme activity, inhibitor |  | 1 µM |  | activity vs control | 106%
Cc1cccc(O[C@H]2CCC[C@@H](C(C)CNCc3ccncc3)C2)c1 (relative stereo) | enzyme activity, inhibitor |  | 1 µM |  | inhibition | -1%
O=C=[N][Ru-4]123([n]4c5ccc(O)cc5c5c6c(c7cc(F)c[n+]1c7c54)C(=O)NC6=O)[S+]1CC[S+]2CC[S+]3CC1 (stereo not shown) | enzyme activity |  | 100 nM, human enzyme, together with: 10 µM ATP | reference: untreated | remaining activity | 2%
Cc1ccc(-c2c(/C=C(\C#N)C(=O)NC(C)C)n(CCCO)c3ncnc(N)c23)cc1 | cell-free assay, competition with immobilised ligand |  | 1 µM |  | remaining binding | 76%
CN1CCN(Cc2ccc(-c3ccc(CO[C@H]4CCC[C@@H]4NC(=O)c4cc(-c5cnn(C)c5)cnc4N)cc3)cc2)CC1 | enzyme activity, inhibitor |  | 0.1 µM |  | inhibition | 3%
Cc1cc(NC(=O)[C@H](O)c2cc(F)cc(F)c2)ccc1-c1cnc(N)c(C(=O)NC(C)C)c1 | binding, competition with immobilised ligand |  | 10 µM |  | remaining binding | 34%
C=CC(=O)N1CCCC(n2c(=O)c3ncccc3n(Cc3ccc(Oc4ccccc4)cc3)c2=O)C1 (stereo not shown) | cell-free assay, competition with immobilised ligand |  | 1 µM |  | remaining binding | 91%
C=CC(=O)N1Cc2nc(-c3cc(-c4cc(Cl)cnc4Cl)c(F)cc3F)n(-c3ccncn3)c2C1 | cell-free assay, inhibitor |  | 1 µM |  | inhibition | 1%
COc1c(OCCCN2CCOCC2)ccc2c1N=C(NC(=O)c1cnc(N)nc1)N1CCN=C21 | kinase activity, inhibitor |  | 1 µM | reference: untreated control | remaining activity | 99%

Excerpt of the above:
SMILES | test | test system | conditions | scale | quantity | result
C=CC(=O)Nc1cccc(-c2cnc3[nH]cc(C(=O)NC(C)(C)C)c3n2)c1 | kinase activity |  | 0.1 µM |  | inhibition | 73% and 75%
NC(=O)[C@@H](O)C[C@H]1CCc2sc3ncnc(O[C@H]4CC[C@H](N5CCOCC5)CC4)c3c21 | enzyme activity, inhibitor |  | 10 µM |  | inhibition | 99%
